# Experimental data collected from several papers.
# Lines come from different studies, so protocols differ.
# Target: Carbonic anhydrase 9 (CA9, Homo sapiens, UniProt Q16790)
SMILES,effect on,mode,method,pH,endpoint,result
NS(=O)(=O)c1cc(C(=O)NCCCC(=O)O)c(NC2CCCCC2)cc1Cl,,,,pH 7,Kd,0.065 µM
CC[C@H](C)[C@H](N)C(=O)NS(=O)(=O)CC(=O)N[C@@]1(C(=O)O)[C@@H](OC(=O)[C@@H](N)[C@@H](C)c2ccccc2)C[C@H]2C(C(N)=O)=CN(C)C[C@H]21,,,,pH 7.5,Ki,0.099 µM
CCCCCCC1CCCC(=O)O1 (stereo not shown),enzyme activity,inhibitor,stopped-flow,,Ki,7.6 µM
NS(=O)(=O)c1ccc(NC(=O)Cc2csc(NC(=O)Nc3ccc(Cl)cc3)n2)cc1,enzyme activity,inhibitor,,,IC50,0.017 µM
CN1C=C(C(N)=O)[C@@H]2C[C@H](O)[C@@](NC(=O)CS(N)(=O)=O)(C(=O)O)[C@@H]2C1,enzyme activity,inhibitor,absorbance,pH 7.5,IC50,> 1 µM
CCCCCCC(=O)N[C@H]1CCOC1=O,enzyme activity,inhibitor,stopped-flow,,Ki,20.7 µM
C[C@@]1(C(=O)O)[C@@H](O)CC[C@]2(C)c3cc4c(cc3CC[C@@H]12)[nH]c1ccc(S(=O)(=O)n2c3ccccc3c3cc5c(cc32)CC[C@H]2[C@](C)(C(=O)O)[C@@H](O)CC[C@]52C)cc14,,,,pH 7.5,Ki,0.111 µM
Cc1cc(C(=O)N(CC(=O)Nc2ccc(-c3cn(C)nn3)cc2F)Cc2ccc(Cl)cc2)ccc1S(N)(=O)=O,enzyme activity,inhibitor,,,IC50,0.012 µM
N#C[Se]CCCCCCOc1ccc2c(-c3ccccc3)cc(=O)oc2c1,enzyme activity,inhibitor,stopped-flow,,Ki,0.133 µM
NS(=O)(=O)c1ccc(NC(=O)c2ccc(Cl)c(S(N)(=O)=O)c2)cc1,enzyme activity,inhibitor,,,IC50,0.0209 µM
O=C1CCCCO1,enzyme activity,inhibitor,stopped-flow,,Ki,5.3 µM
N#CSCCCCCCOc1ccc2c(-c3ccccc3)cc(=O)oc2c1,enzyme activity,inhibitor,stopped-flow,,Ki,0.157 µM
NS(=O)(=O)c1ccc(NC(=O)CN2CCCC(NC(=O)c3cc4ccccc4o3)C2)cc1 (stereo not shown),enzyme activity,inhibitor,,,IC50,0.0257 µM
